Results from different studies.
Protocols differ between the studies behind these lines. ± gives the spread as reported.

Compound	target or system	assay	system	conditions	how to read	endpoint	value
O=C(N/N=C/c1cc[n+](Cc2ccccc2)c2ccccc12)c1cccc(C(=O)N/N=C/c2cc[n+](Cc3ccccc3)c3ccccc23)n1	telomeric G4 DNA hybrid-2	FRET melting	–	1 µM, DNA 0.2 µM, together with: duplex DNA competitor 10 µM	–	ΔTm	24.9 ± 1.5 °C
CC(C)(C)c1cc(-c2ccc3cccnc3n2)nc(-c2ccc3cccnc3n2)c1.[Cl-].[Cl-].[Ru+2].c1cnc2c(c1)ccc1cccnc12	B16-F10	resazurin	–	together with: light 733 nm, 9 mW, 100 J/cm2	–	EC50	217 ± 8 µM
CN1CCC[C@]1(C)/C=C/S(=O)(=O)NC(=O)Nc1c2c(cc3c1CCC3)CCC2	–	IL-1β release	human, whole blood ex vivo	oral, 12.5 mg twice daily, day 14, 336 h, multiple ascending dose, together with: LPS and ATP	–	inhibition	81.8%
Cn1ncc2cc(-c3cncc(Cl)c3N3CCC4(CCNC4=O)CC3)ccc21	LS174T	gene expression, microarray, measured: VLDLR mRNA	–	concentration not given, 24 h	baseline: untreated cells	log2 fold change	3.96
C[n+]1cc(/C=N/NC(=O)C(=O)N/N=C/c2cc3ccccc3[n+](C)c2)cc2ccccc21	telomeric G4 DNA hybrid-2	FRET melting	–	1 µM, DNA 0.2 µM	–	ΔTm	2.6 ± 1 °C
Nc1ncc(-c2cc(-c3cnn(CC(F)(F)F)c3)ncc2F)nc1C(=O)NC1CNCC(F)C1 (stereo not drawn)	CSF1R-autoinhibited	KINOMEscan competition binding	–	1 µM	baseline: DMSO control	remaining binding	100%
O=C(N/N=C/c1cc[n+](Cc2ccccc2)c2ccccc12)C(=O)N/N=C/c1cc[n+](Cc2ccccc2)c2ccccc12	telomeric G4 DNA hybrid-2	FRET melting	–	1 µM, DNA 0.2 µM, together with: duplex DNA competitor 10 µM	–	ΔTm	7.9 ± 0.6 °C
COCCOCCOCCNC(=O)Cc1cc(CC(=O)N[C@H]2C[C@H]3C(=O)Nc4cc(OCCOCCOCCOC)cc(n4)C(=O)N4CCC[C@H]4C(=O)Nc4cc(OCCOCCOCCOC)cc(n4)C(=O)N4CCC[C@H]4C(=O)Nc4cc(OCCOCCOCCOC)cc(n4)C(=O)N3C2)cc(CC(=O)N[C@H]2C[C@H]3C(=O)Nc4cc(OCCOCCOCCOC)cc(n4)C(=O)N4CCC[C@H]4C(=O)Nc4cc(OCCOCCOCCOC)cc(n4)C(=O)N4CCC[C@H]4C(=O)Nc4cc(OCCOCCOCCOC)cc(n4)C(=O)N3C2)c1	–	anion binding, ITC	phosphate buffer 35 mM	pH 7.4, 298 K, together with: sodium sulfate	–	ΔH	6.8 ± 0.4 kJ mol^–1
O=C(N/N=C/c1ccc2c(ccc[n+]2Cc2ccccc2)c1)c1ccc2ccc3ccc(C(=O)N/N=C/c4ccc5c(ccc[n+]5Cc5ccccc5)c4)nc3c2n1	telomeric G4 DNA hybrid-2	FRET melting	–	1 µM, DNA 0.2 µM	–	ΔTm	30.8 ± 0.6 °C
C=CC(=O)N1[C@@H](c2ccc3c(c2)OCO3)c2[nH]c3ccccc3c2C[C@H]1C(=O)N1CCN(C)CC1	human cyclin E1 N112C-3xFLAG:CDK2	co-IP with TMT proteomics, measured: TXN	–	concentration not given, P10599	baseline: wild type DMSO	relative co-enrichment	69%
N=C(N)NCCC[C@@H]1NC(=O)[C@H](CCCNC(=N)N)NC(=O)[C@@H](CCCNC(=N)N)NC(=O)[C@@H](CCCNC(=N)N)NC(=O)[C@@H](C(c2ccccc2)c2ccccc2)NC(=O)[C@H](Cc2c[nH]c3ccccc23)NC(=O)[C@@H](C(c2ccccc2)c2ccccc2)NC1=O	Aspergillus fumigatus	–	Af 293	4 x MIC, 12 h	–	reduction of viable cells	> 95%
O=C(N/N=C/c1ccc2c(ccc[n+]2Cc2ccccc2)c1)c1cccc(C(=O)N/N=C/c2ccc3c(ccc[n+]3Cc3ccccc3)c2)n1	telomeric G4 DNA hybrid-2	FRET melting	–	1 µM, DNA 0.2 µM	–	ΔTm	23.2 ± 0.5 °C
COC1CN([C@H]2CC[C@H]([C@@]3(C)Oc4c(Cl)cc(C(=O)NCc5c(SC)cc(C)[nH]c5=O)c(C)c4O3)CC2)C1	–	RNA-seq, measured: DNAJB5 mouse homolog	mouse, HT-1376 xenograft, whole blood	dose not given	baseline: vehicle	log2 fold change	1.27
CC(C)c1ccc(N(C)c2ccc3c(c2)OCC[C@H]3CNc2cnccc2C(=O)O)cc1	COLO-680N	cell viability, CellTiter-Glo	–	7 days	–	IC50	0.00697 µM
CC(=O)[O-].O.O.O.O.[Co+2].[O-]c1ccc(Br)cc1C=NCCN1CCOCC1	–	superoxide scavenging	–	40 µM	–	inhibition	4.03%
C[n+]1cc(/C=N/NC(=O)c2ccc3ccc(C(=O)N/N=C/c4cc5ccccc5[n+](C)c4)nc3n2)cc2ccccc21	telomeric G4 DNA hybrid-2	FRET melting	–	1 µM, DNA 0.2 µM	–	ΔTm	17.4 ± 0.7 °C
C=CC(=O)Nc1cccc(Cn2ncc3cnc(Nc4cnn(CCOC)c4)nc32)c1	PRKX human	binding, KINOMEscan	–	100 nM	lower = stronger binding	percent of control	100%
CNS(=O)(=O)Nc1nccc(Cc2c(C)c3ccc(Oc4ncccc4F)cc3oc2=O)c1F	NCI-H1876	cell viability, CellTiter-Glo	–	7 days	–	IC50	> 1 µM
CC[n+]1cccc2cc(/C=N/NC(=O)C(=O)N/N=C/c3ccc4c(ccc[n+]4CC)c3)ccc21	telomeric G4 DNA hybrid-2	FRET melting	–	1 µM, DNA 0.2 µM, together with: duplex DNA competitor 10 µM	–	ΔTm	3.1 ± 1.4 °C
COc1cc(O)ccc1CCC(c1ccc(O)cc1)c1cc2c(c(C)c1O)OC(c1ccc(O)cc1)CC2 (mixture of isomers)	–	–	human blood	0.3 µM, together with: A23187	–	LTB4 isomers level	297 ± 112 pg/mL
CN1CCCNC(=O)c2cccc(c2)C(=O)NCCCN(C)CCCNc2cccc3c2C(=O)c2cccc(c2C3=O)NCCC1	SAS	RNA-Seq, measured: PREB mRNA	–	1 µM, 6 h	baseline: untreated cells	log2 fold change	-0.573
C[n+]1ccc(/C=N/NC(=O)c2ccc3ccc4ccc(C(=O)N/N=C/c5cc[n+](C)cc5)nc4c3n2)cc1	telomeric G4 DNA hybrid-2	FRET melting	–	1 µM, DNA 0.2 µM	–	ΔTm	25.5 ± 0.9 °C
C=C(NC(=O)c1csc(-c2nc3c(cc2O)-c2nc(cs2)C(=O)NC(C(C)O)C(=O)NC(=C(C)OC)c2nc(cs2)C(=O)NC2c4nc(cs4)C(=O)NC(COC(=O)c4c5c6c(cccc6n4O)COC(=O)C(OC4CC(C)(O)C(N(C)C)C(C)O4)C2OC5)c2nc-3cs2)n1)C(N)=O (stereo not drawn)	Staphylococcus aureus	–	ATCC 43300 MRSA	1/2×MIC, 2 h exposure	–	post-antibiotic effect	0.75 ± 0.12 h
Cc1ncsc1-c1ccc(C(C)NC(=O)C2CC(O)CN2C(=O)C(NC(=O)CCCCCCCCCCN2CCCC(Nc3ncc(Cl)c(Nc4ccccc4S(=O)(=O)C(C)C)n3)C2)C(C)(C)C)cc1 (stereo not drawn)	22Rv1	RNA-seq, measured: MED22 mRNA	–	concentration not given	baseline: DMSO	log2 fold change	-1.17

Excerpt of the above:
Compound	target or system	assay	system	conditions	how to read	endpoint	value
CC(C)c1ccc(N(C)c2ccc3c(c2)OCC[C@H]3CNc2cnccc2C(=O)O)cc1	COLO-680N	cell viability, CellTiter-Glo	–	7 days	–	IC50	0.00697 µM
CNS(=O)(=O)Nc1nccc(Cc2c(C)c3ccc(Oc4ncccc4F)cc3oc2=O)c1F	NCI-H1876	cell viability, CellTiter-Glo	–	7 days	–	IC50	> 1 µM
O=C(N/N=C/c1ccc2c(ccc[n+]2Cc2ccccc2)c1)c1ccc2ccc3ccc(C(=O)N/N=C/c4ccc5c(ccc[n+]5Cc5ccccc5)c4)nc3c2n1	telomeric G4 DNA hybrid-2	FRET melting	–	1 µM, DNA 0.2 µM	–	ΔTm	30.8 ± 0.6 °C
